# Experimental data gathered from unrelated publications.
# Protocols differ between the studies behind these lines. ± marks the error that the study gave.
# F2: Prothrombin (F2, Homo sapiens, UniProt P00734)
# prp N63Q: Ribosomal processing cysteine protease Prp (prp, Staphylococcus aureus, UniProt Q2FXS9, N63Q)
Compound,target,test,test system,setting,inhibition
N#Cc1ccc(CNc2ccc3c(c2)B(O)OC3)cc1,F2,enzyme activity,,"50 µM, with: substrate 50 µM",≤ 10%
CNC(=O)[C@@H](NC(=O)[C@H](CC(C)C)[C@H](O)C(=O)NO)C(C)(C)C,prp N63Q,"enzyme activity, inhibitor",,"10 µM, prp 21.4 nM, with: FITC peptide substrate 0.5 µM",41.5 ± 11.9%
CC[C@H](C)[C@H](NC(=O)[C@@H](NC(=O)[C@H](N)Cc1ccccc1)C(C)C)C(=O)N[C@@H](C)C(N)=O,"APP (Homo sapiens, UniProt P05067)","amyloid-beta aggregation, thioflavin T fluorescence",,"0.5 µM, 120 h, with: 2 µM amyloid-beta",60.1%
CC(C)C(NC(=O)c1ccco1)C(=O)NCC(c1ccco1)N1CCCCC1 (stereo not shown),"Beta-lactamase (ampC, Escherichia coli K-12, UniProt P00811)","enzyme activity, inhibitor",,"10 µM, with: CENTA substrate",6%
CN1CCN(c2cc(-c3ccncc3)c(-c3ccc4ccccc4c3)nn2)CC1,"TACR2 (Homo sapiens, UniProt P21452)","antagonist, FLIPR",,10 µM,19.5%
CN(C(=O)n1cnc(-c2ccc[n+]([O-])c2)c1)C1CCCCC1,"AVPR1A (Homo sapiens, UniProt P37288)",radioligand binding,,10 µM,-5%
CCCC[C@@H](C=O)NC(=O)[C@H](CC(C)C)NC(=O)OCc1ccccc1,prp N63Q,"enzyme activity, inhibitor",,"10 µM, prp 21.4 nM, with: FITC peptide substrate 0.5 µM",-8.54 ± 6.6%
COc1cc(Nc2ncc(F)c(Nc3ccc4c(n3)NC(=O)C(C)(C)O4)n2)cc(OC)c1OC,"RPS6KA2 (Homo sapiens, UniProt Q15349)",KINOMEscan,,"10 µM, RSK3(Kin.Dom.2-C-terminal)",0%
O=C(Nc1ccc2c(c1)B(O)OC2)OCc1ccccc1,F2,enzyme activity,,"50 µM, with: substrate 50 µM",≤ 10%
CC(C)N1CCC[C@H]1CNC(=O)c1cn(C2CCCC2)c(=O)c2c1c1ccccc1n2C,P2X purinergic receptor (rabbit),radioligand binding,,10 µM,28%
Cn1c(=O)cc(N2CCC[C@@H](N)C2)n(Cc2cc(F)ccc2C#N)c1=O,prp N63Q,"enzyme activity, inhibitor",,"10 µM, prp 21.4 nM, with: FITC peptide substrate 0.5 µM",-11.4 ± 7.7%
COc1ccc(N2C(=O)N(c3c(C)cccc3Cl)Cc3cnc(Nc4ccc(C5CCN(C)CC5)cc4OC)nc32)nc1,"NEK7 (Homo sapiens, UniProt Q8TDX7)",kinase activity,,0.5 µM,5%
COCc1c(-c2cc3cc(C)cc(OC)c3s2)c2c(N)ncnn2c1CN1CCNC(=O)C1,alpha1A adrenoceptor,radioligand binding,,10 µM,11%
Cc1cc(N2CCN([C@@H]3CN[C@H](C(=O)N4CCSC4)C3)CC2)n(-c2ccccc2)n1,prp N63Q,"enzyme activity, inhibitor",,"10 µM, prp 21.4 nM, with: FITC peptide substrate 0.5 µM",-17 ± 3.9%
CC(=O)NC[C@H]1[C@H](O)[C@H](O)[C@@H]2[C@H](O)C[C@@H](CO)N21,human placental β-N-acetylglucosaminidase,,,"0.000805 µM, run 2, with: p-nitrophenyl GlcNAc",19.2%
O=c1ccc2ccc(OCCCCN3CCN(c4cccc5sccc45)CC3)cc2[nH]1,prp N63Q,"enzyme activity, inhibitor",,"10 µM, prp 21.4 nM, with: FITC peptide substrate 0.5 µM",0.5 ± 4.8%
CC(C(O)c1ccc(O)cc1)N1CCC(Cc2ccccc2)CC1 (stereo not shown),"Glutamate receptor ionotropic, NMDA 2B, with GluN1 (Grin2b, Rattus norvegicus, UniProt Q00960)",,HEK293,10 µM,88%
C[C@H](C(=O)N[C@H]1COc2ccccc2[C@@H]1S(C)(=O)=O)c1ccc(F)cc1,"Ca2+-ATPase, pig skeletal muscle",enzyme activity,,"10 µM, Eurofins selectivity panel",-3%
COc1cc(C(=O)c2c[nH]c3cc(-c4ccc(C)cc4)ccc23)cc(OC)c1OC,"Tubulin alpha-1B chain/TUBB2B (Bos taurus, UniProt P81947+Q6B856)","tubulin polymerization, turbidimetry",,concentration not given,inhibited
O=c1ccc2ccccc2o1,"Oprk1 (Rattus norvegicus, UniProt P34975)","radioligand binding, agonist",,10 µM,4.43%
O=C(Nc1ccc2c(c1)B(O)OC2)c1ccccc1OCc1ccccc1,F2,enzyme activity,,"50 µM, with: substrate 50 µM",≤ 10%
CC(C)[C@H](O)C(=O)N[C@@H](C)C(=O)N[C@@H]1C(=O)N(C)CCc2ccccc21,prp N63Q,"enzyme activity, inhibitor",,"10 µM, prp 21.4 nM, with: FITC peptide substrate 0.5 µM",-13.4 ± 11.5%
Cn1cccc1-c1cccnc1,"ADRA1D (Homo sapiens, UniProt P25100)",binding,,50 µM,-6.92%
O=C(Nc1ccc2c(c1)B(O)OC2)c1cccc(OCC2CCCCC2)c1,F2,enzyme activity,,"50 µM, with: substrate 50 µM",≤ 10%
CN(CCN1CCC(OC(=O)Nc2ccccc2-c2ccccc2)CC1)C(=O)c1ccc(CN2CCC(C(N)=O)CC2)cc1,"ADORA2A (Homo sapiens, UniProt P29274)",radioligand binding,,"1 µM, with: [3H]CGS21680 6.0 nM",-5%
O=C(Nc1cnccc1Cl)N1CCN(Cc2ccc3c(c2)OC(F)(F)O3)CC1,"DMPK (Homo sapiens, UniProt Q09013)","kinase activity, inhibitor",,"10 µM, with: Axltide substrate",1%
FC(F)(F)c1cccc(Nc2nc(NCCOc3ccccc3)nc3[nH]cnc23)c1,"CSNK1D (Homo sapiens, UniProt P48730)",Z'-LYTE or Adapta,,5 µM,9%
CCCC(C)NC(=O)c1ccc(Cl)c(Cl)c1 (stereo not shown),prp N63Q,enzyme activity,,"10 µM, 21.4 nM enzyme dimer, with: 0.5 µM FITC-labelled peptide substrate",17.8 ± 29.9%
NNCCc1c[nH]c2ccccc12,"Secernin-3 (Homo sapiens, UniProt Q0VDG4)","probe labelling, competitive ABPP-SILAC",HEK-293T cell lysate,"1 µM, 30 min, 25 °C",~50%
O=C(Nc1cccnn1)N1CCC(=Cc2cccc(Oc3ccc(C(F)(F)F)cn3)c2)CC1,"TSSK2 (Homo sapiens, UniProt Q96PF2)","kinase activity, inhibitor",,"10 µM, human, with: CHKtide",-8%
C#CCCCCNC(=O)CI,"Genome polyprotein, NIa protease (Tobacco etch virus, UniProt P04517)",,,up to 50 µM,no inhibition
O=C(Nc1ccc2c(c1)B(O)OC2)c1cccc(Oc2ccccc2)c1,F2,enzyme activity,,"50 µM, with: substrate 50 µM",≤ 10%
N#C[C@@H]1C[C@@H]2C[C@@H]2N1C(=O)[C@@H](N)C12CC3CC(CC(O)(C3)C1)C2,prp N63Q,"enzyme activity, inhibitor",,"10 µM, prp 21.4 nM, with: FITC peptide substrate 0.5 µM",38.2 ± 7.3%
CCCC[C@@H](NC(=O)[C@@H](N)Cc1ccc(O)cc1)C(=O)NCC(=O)N[C@@H](Cc1ccc(F)cc1)C(=O)N(C)CCC[C@@]1(c2ccc(F)cc2)OCc2cc(C#N)ccc21,"ADRA2A (Homo sapiens, UniProt P08913)",,,10 µM,< 50%
